Published values collected from several papers.
Each numbered part is a random draw from the data of one study; scales do not carry over between parts. Changes are numbered by the printed parent chain.
Chain of UniProt Q9UHD2 (whole entry, looked up): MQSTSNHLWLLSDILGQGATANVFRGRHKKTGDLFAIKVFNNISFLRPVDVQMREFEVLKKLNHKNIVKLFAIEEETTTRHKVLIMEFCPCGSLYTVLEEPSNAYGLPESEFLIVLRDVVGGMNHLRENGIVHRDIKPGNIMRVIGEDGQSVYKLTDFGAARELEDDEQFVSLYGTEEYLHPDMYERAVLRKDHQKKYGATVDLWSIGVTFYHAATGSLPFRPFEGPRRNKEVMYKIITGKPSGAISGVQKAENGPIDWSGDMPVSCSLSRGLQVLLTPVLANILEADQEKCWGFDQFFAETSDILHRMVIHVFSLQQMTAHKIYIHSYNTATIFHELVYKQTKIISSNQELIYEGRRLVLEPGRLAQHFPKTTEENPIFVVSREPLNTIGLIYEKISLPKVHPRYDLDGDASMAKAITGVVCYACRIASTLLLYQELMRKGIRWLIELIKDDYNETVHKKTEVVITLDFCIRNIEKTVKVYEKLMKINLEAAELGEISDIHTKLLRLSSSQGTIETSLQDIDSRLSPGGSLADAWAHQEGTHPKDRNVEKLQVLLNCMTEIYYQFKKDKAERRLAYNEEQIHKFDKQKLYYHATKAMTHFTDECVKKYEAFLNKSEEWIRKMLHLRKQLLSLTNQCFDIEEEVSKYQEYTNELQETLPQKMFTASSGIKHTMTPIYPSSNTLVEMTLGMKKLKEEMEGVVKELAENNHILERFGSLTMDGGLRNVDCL
Chain of UniProt P30291 (whole entry, looked up): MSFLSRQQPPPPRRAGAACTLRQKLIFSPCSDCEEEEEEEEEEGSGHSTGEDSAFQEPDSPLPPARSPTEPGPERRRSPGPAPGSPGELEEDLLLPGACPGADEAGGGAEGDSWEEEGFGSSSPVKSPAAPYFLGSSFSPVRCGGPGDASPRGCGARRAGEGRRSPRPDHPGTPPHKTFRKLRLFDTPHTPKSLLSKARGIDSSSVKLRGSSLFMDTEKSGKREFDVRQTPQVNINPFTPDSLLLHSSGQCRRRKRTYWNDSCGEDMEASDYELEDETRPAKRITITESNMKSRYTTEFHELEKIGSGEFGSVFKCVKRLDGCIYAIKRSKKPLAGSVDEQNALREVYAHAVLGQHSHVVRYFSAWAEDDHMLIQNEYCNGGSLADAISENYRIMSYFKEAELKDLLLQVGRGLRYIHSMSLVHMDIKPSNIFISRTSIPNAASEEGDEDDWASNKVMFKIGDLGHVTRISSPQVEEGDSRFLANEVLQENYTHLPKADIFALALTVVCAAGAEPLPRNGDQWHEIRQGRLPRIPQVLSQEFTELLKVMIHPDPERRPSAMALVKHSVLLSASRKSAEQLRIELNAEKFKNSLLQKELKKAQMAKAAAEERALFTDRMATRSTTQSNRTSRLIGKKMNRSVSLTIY
Chain of UniProt Q9Y6M4 (whole entry, looked up): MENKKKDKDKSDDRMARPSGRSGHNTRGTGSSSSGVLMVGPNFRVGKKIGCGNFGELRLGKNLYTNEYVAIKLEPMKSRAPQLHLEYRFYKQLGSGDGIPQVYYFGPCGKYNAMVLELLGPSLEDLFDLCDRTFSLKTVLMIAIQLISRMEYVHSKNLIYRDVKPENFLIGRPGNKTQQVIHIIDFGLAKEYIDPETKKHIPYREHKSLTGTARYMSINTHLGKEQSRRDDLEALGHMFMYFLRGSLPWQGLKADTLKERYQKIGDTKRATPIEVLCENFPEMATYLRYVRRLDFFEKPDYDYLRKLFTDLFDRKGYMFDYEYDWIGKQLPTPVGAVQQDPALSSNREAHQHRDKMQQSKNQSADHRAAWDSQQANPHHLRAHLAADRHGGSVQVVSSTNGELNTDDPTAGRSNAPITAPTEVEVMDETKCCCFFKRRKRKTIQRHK
Chain of UniProt Q12866 (whole entry, looked up): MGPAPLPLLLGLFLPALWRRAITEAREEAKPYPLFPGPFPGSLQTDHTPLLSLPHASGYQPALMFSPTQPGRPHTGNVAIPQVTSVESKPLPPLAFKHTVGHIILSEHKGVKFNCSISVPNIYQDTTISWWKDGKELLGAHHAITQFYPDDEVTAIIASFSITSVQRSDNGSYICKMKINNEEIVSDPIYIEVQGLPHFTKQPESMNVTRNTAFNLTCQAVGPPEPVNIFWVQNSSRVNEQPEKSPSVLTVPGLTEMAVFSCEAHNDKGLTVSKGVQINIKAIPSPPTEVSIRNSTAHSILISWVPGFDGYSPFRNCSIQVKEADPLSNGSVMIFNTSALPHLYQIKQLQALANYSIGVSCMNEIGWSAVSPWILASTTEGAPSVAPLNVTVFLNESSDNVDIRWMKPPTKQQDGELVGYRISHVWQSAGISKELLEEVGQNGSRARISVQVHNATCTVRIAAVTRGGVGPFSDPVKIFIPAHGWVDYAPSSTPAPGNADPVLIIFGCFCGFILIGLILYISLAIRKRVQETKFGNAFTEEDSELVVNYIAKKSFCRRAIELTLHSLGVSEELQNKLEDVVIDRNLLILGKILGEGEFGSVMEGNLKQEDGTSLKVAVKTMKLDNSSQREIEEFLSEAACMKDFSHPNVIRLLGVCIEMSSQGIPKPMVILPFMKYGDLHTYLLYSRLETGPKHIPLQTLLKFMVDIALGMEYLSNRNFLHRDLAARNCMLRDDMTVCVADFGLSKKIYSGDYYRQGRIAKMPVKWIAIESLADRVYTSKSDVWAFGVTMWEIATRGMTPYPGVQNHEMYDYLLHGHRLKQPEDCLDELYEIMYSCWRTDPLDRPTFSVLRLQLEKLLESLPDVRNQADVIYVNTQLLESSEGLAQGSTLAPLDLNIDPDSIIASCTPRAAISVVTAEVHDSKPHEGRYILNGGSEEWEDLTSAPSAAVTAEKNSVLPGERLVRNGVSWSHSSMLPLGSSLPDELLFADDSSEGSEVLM
Chain of UniProt Q8IYT8 (whole entry, looked up): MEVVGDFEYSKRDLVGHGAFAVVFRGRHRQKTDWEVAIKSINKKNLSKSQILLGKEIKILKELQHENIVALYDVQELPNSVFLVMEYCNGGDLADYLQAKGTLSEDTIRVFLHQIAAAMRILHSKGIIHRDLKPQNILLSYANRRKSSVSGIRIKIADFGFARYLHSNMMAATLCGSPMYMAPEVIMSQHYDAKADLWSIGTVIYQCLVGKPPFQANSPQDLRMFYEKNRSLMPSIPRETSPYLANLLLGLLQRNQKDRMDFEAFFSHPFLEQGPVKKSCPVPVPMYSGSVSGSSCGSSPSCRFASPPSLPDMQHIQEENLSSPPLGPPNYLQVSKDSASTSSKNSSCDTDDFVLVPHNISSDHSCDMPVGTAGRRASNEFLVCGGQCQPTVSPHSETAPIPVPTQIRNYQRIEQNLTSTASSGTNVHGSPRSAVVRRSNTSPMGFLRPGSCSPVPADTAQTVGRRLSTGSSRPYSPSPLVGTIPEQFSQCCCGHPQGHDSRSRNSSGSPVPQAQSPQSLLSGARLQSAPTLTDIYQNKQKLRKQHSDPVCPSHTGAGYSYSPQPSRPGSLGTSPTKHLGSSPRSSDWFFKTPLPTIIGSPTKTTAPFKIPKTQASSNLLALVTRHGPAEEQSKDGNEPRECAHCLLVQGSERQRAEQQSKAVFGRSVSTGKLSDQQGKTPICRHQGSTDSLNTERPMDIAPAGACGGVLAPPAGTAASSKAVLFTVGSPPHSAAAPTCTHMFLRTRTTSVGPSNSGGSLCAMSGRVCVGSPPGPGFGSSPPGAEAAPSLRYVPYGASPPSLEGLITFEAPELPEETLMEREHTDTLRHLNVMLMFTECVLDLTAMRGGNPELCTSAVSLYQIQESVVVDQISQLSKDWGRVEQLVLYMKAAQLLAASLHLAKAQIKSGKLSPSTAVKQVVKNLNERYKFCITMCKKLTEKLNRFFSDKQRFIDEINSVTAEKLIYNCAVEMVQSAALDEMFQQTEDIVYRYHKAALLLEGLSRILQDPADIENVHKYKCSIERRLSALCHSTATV
Chain of UniProt P49137 (whole entry, looked up): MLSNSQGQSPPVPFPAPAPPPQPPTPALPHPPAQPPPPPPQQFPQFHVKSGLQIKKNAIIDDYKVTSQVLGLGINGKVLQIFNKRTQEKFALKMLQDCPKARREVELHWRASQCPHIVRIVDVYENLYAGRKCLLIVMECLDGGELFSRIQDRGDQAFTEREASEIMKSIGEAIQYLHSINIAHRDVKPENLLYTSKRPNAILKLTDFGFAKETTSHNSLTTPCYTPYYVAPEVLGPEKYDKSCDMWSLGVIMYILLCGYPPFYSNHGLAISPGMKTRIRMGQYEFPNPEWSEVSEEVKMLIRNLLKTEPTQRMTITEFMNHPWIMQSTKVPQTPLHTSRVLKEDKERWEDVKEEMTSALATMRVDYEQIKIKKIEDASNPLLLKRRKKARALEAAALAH
Chain of UniProt Q9HC98 (whole entry, looked up): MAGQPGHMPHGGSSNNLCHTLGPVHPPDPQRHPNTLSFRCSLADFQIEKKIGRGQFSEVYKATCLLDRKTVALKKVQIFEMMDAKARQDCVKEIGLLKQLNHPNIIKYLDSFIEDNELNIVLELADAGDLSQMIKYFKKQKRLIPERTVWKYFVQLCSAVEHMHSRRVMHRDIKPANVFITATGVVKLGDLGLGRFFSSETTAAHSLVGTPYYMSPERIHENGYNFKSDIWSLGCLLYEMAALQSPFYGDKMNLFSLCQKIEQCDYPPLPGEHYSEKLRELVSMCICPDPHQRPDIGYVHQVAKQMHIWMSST

Sample 1
Organism: Sarcocystis neurona
Observed: parasite growth
Tested at: concentration not given
| Structure (SMILES) | inhibition [%] |
| --- | --- |
| CC(CCCCC(=O)Nc1ccc(C(F)(F)F)cc1)NCCc1cnc[nH]1 (stereo not drawn) | -6.6 |
| CC(Cc1ccccc1)(NC(=O)CN)c1ccccc1.Cl (stereo not drawn) | -5.2 |
| Cl.O.O=C1N(c2ccccc2)c2ccccc2C1(Cc1ccncc1)Cc1ccncc1 | -15 |

Sample 2
Cell line: A-375
Tested at: 100 µM
Time: 60 h
| SMILES | viability [%] |
| --- | --- |
| Cc1cnc(NC(=O)C2=C(O)c3ccccc3S(=O)(=O)N2C)s1 | 89.2 |
| CC(=O)[C@H]1CC[C@H]2[C@@H]3CCC4=CC(=O)CC[C@]4(C)[C@H]3CC[C@]12C | 5.18 |
| CO[C@H]1C[C@@H]2CC[C@@H](C)[C@@](O)(O2)C(=O)C(=O)N2CCCC[C@H]2C(=O)O[C@H]([C@H](C)C[C@@H]2CC[C@@H](OCCO)[C@H](OC)C2)CC(=O)[C@H](C)/C=C(\C)[C@@H](O)[C@@H](OC)C(=O)[C@H](C)C[C@H](C)/C=C/C=C/C=C/1C | 5.44 |
| NC(=O)NS(=O)(=O)c1ccc(N)cc1 | 89.3 |

Sample 3
Host: human
Sample: microsomes or S9
Tested at: 2 µM
Time: 0.5 h
| SMILES | remaining compound [%] |
| --- | --- |
| O=C(c1c(OCC2CC2)cc(=O)n2c1CCOCC2)N1CCN(C2CCCCC2)CC1 | 59.4 |
| COc1ccccc1CNC(=O)c1c(OC)cc(=O)n2c1CCCC2 | > 99 |
| CC(C)(C)OC(=O)COc1ccc(-c2cc3ccccc3[nH]c2=O)cc1 | 6.47 |
| CS(=O)(=O)NCC1CCC(C(=O)NCC2CCS(=O)(=O)C2)CC1 (stereo not drawn) | > 99 |
| Cc1cc(C)n(CC(O)CON=C2c3ccccc3-c3ccccc32)n1 (stereo not drawn) | 4.93 |

Sample 4
Compound: Oc1cccc(-c2nc(N3CCOCC3)c3oc4ncccc4c3n2)c1
Observed: enzyme activity
Mode: inhibitor
Tested at: 0.5 µM
Reference: control
| target | remaining activity [%] |
| --- | --- |
| TAOK2 (Homo sapiens, UniProt Q9UL54) | 92.2 |
| GRK7 (Homo sapiens, UniProt Q8WTQ7) | 100 |
| FRK (Homo sapiens, UniProt P42685) | 91.3 |
| MAPK3 (Homo sapiens, UniProt P27361) | 94.1 |
| EPHA3 (Homo sapiens, UniProt P29320) | 93.7 |
| NEK1 (Homo sapiens, UniProt Q96PY6) | 77.8 |
| CSNK1G3 (Homo sapiens, UniProt Q9Y6M4) | 99.9 |
| ARAF (Homo sapiens, UniProt P10398) | 92 |
| ABL2 (Homo sapiens, UniProt P42684) | 94.9 |
| WEE1 (Homo sapiens, UniProt P30291) | 81.6 |
| JAK3 (Homo sapiens, UniProt P52333) | 99 |
| CSNK1G2 (Homo sapiens, UniProt P78368) | 88.1 |
| MAP2K2 (Homo sapiens, UniProt P36507) | 85 |
| ULK2 (Homo sapiens, UniProt Q8IYT8) | 106 |
| TEK (Homo sapiens, UniProt Q02763) | 87.7 |
| TBK1 (Homo sapiens, UniProt Q9UHD2) | 93 |
| MERTK (Homo sapiens, UniProt Q12866) | 87.8 |
| MAPKAPK2 (Homo sapiens, UniProt P49137) | 97.8 |
| NEK6 (Homo sapiens, UniProt Q9HC98) | 106 |
| FGFR3 (Homo sapiens, UniProt P22607) | 101 |
| RPS6KA2 (Homo sapiens, UniProt Q15349) | 88.1 |
| MAP3K5 (Homo sapiens, UniProt Q99683) | 101 |
| GSK3B (Homo sapiens, UniProt P49841) | 94.8 |

Sample 5
Target: ATF2, bZIP domain (human)
Method: DHFR protein complementation
Sample: yeast
Setting: single substitutions, most at no-binding floor
Reference: wild-type JUN-FOS pair
Direction: higher = stronger binding
Starting sequence: JUN, bZIP domain (human); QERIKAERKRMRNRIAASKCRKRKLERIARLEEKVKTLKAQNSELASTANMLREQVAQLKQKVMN; partner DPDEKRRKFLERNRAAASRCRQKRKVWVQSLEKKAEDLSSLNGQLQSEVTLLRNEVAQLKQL
| Change | binding fitness |
| --- | --- |
| T37H | -1.35 natural log |
| L52H | -1.5 natural log |
| K36H | -1.48 natural log |
| I28H | -1.5 natural log |
| A46E | -1.39 natural log |
| A57R | -1.45 natural log |
| R30Q | -1.2 natural log |
| E44A | -1.43 natural log |

Sample 6
Target: Alpha-2B adrenergic receptor (ADRA2B, Homo sapiens, UniProt P18089)
Chain of UniProt P18089 (whole entry, looked up): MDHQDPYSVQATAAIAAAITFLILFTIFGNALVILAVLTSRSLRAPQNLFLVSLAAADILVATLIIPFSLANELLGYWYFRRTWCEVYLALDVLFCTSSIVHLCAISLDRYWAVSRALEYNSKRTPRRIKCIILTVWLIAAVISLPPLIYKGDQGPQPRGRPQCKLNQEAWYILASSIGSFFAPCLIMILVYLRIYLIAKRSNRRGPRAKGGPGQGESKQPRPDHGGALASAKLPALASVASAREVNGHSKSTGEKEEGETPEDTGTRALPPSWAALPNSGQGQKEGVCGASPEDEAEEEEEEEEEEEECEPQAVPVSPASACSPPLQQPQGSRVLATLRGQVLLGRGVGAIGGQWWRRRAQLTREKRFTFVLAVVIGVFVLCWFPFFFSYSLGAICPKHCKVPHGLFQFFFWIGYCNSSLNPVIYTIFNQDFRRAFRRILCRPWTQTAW
Observed: binding
Method: radioligand binding
Tested at: 10 µM
| SMILES | inhibition [%] |
| --- | --- |
| O=C(NC[C@@H]1[C@H]2CN(C(=O)OCc3cc(C(F)(F)F)cc(C(F)(F)F)c3)C[C@@H]12)c1ccc2[nH]nnc2c1 | 25.2 |
| COc1cccc(CNC(=O)c2nc3scc(COCc4ccc(C(=O)O)cc4)c3c(=O)[nH]2)c1 | 11 |
| O=C([C@H]1C[C@H](O)CN1c1ccc(Cl)cc1)N1CC2COCC(C1)N2Cc1ccc(Cl)cc1 | -34.3 |
| O=C(Nc1cccnn1)N1CCC(=Cc2cccc(Oc3ccc(C(F)(F)F)cn3)c2)CC1 | 40 |

Further values, each from its own experiment
| Structure (SMILES) | host | dose | setting | measurement | result |
| --- | --- | --- | --- | --- | --- |
| CC(C)n1cnc(-c2ccc(F)cc2)c1-c1ncc(C(=O)Nc2ccc(N3CCN(C)CC3)cc2)[nH]1 | IPF patients | 30 mg once daily | adverse event | Hypophosphataemia incidence | 0% |

For quick reference, copied from above (sample 4):
| target | remaining activity [%] |
| --- | --- |
| WEE1 (Homo sapiens, UniProt P30291) | 81.6 |
| JAK3 (Homo sapiens, UniProt P52333) | 99 |
| CSNK1G2 (Homo sapiens, UniProt P78368) | 88.1 |
| MAP2K2 (Homo sapiens, UniProt P36507) | 85 |
| ULK2 (Homo sapiens, UniProt Q8IYT8) | 106 |
| TEK (Homo sapiens, UniProt Q02763) | 87.7 |
| TBK1 (Homo sapiens, UniProt Q9UHD2) | 93 |
| MERTK (Homo sapiens, UniProt Q12866) | 87.8 |
